Measurements pooled from the literature.
Lines come from different studies, so protocols differ. Numbers after ± are the reported error.
Cell line: RAW264.7

With `C=CCc1ccc(OC(=O)COC(=O)Cn2cnc3c2c(=O)n(C)c(=O)n3C)c(OC)c1` the inhibition was 49.3% (ELISA, refers to: IL-6; 10 µM, with: LPS; relative to: LPS alone).
With `COC1=C[C@@H]2[C@@H]3Cc4ccc(OC)c(OC(=O)c5cnccn5)c4[C@]2(CCN3C)CC1=O` the IC50 was 30.3 µM (NO release, inhibitor, Griess; LPS-stimulated).
With `CC(C)C[C@@H](NC(=O)[C@H]1CCCN1C(=O)[C@@H](CC(C)C)NC(=O)[C@@H](Cc1c[nH]c2ccccc12)NC(=O)[C@@H](CCCCN)NC(=O)[C@@H](CCCCN)NC(=O)[C@@H](C)NC(=O)[C@@H](CC(C)C)NC(=O)[C@@H](C)NC(=O)[C@@H](CC(C)C)NC(=O)[C@@H](C)NC(=O)[C@@H](CC(C)C)NC(=O)[C@@H](CCCCN)NC(=O)[C@H](N)CCCCN)C(=O)N[C@H](C)C(=O)N[C@H](CCCCN)C(=O)N[C@H](CCCCN)C(=O)N[C@H](CC(C)C)C(=O)N[C@H](C)C(=O)N[C@H](CC(C)C)C(=O)N[C@H](C)C(=O)N[C@H](CC(C)C)C(=O)N[C@H](C)C(=O)N[C@H](CCCCN)C(=O)N[C@H](CCCCN)C(N)=O` the EC50 was 3.42 ± 0.16 µM (cytotoxicity, MTT; four hours, 37 °C, serum-free medium).
`CCCCn1cc(C(=O)O)c(=O)c2cc(F)c(Nc3ccccc3Cl)c(N)c21` has an IC50 of 140 µM (NO release, inhibitor, Griess; LPS-stimulated).
`COc1ccc(-n2cc(C(=O)N3C[C@]4(OC(=O)c5ccccc5NC(C)=O)CC[C@H](OC)[C@@]56[C@@H]4C[C@@H]([C@@H]35)[C@@]3(O)C[C@H](OC)[C@H]4C[C@@H]6[C@]3(O)[C@H]4OC)nn2)cc1` — result for p-ERK/ERK ratio: “inhibited” (western blot; 30, 60 or 120 µM, 24 h, with: LPS 1 µg/mL).
The inhibition of `COc1cc(C=O)ccc1OC(=O)Cn1cnc2c1c(=O)n(C)c(=O)n2C` is reported as 65.4% (NO release, inhibitor, Griess; 25 µM, LPS-stimulated).
For `CC(C)C[C@@H](NC(=O)[C@@H](C)NC(=O)[C@@H](CCCCN)NC(=O)[C@@H](CC(C)C)NC(=O)[C@@H](C)NC(=O)[C@H]1CCCN1C(=O)[C@@H](CC(C)C)NC(=O)[C@@H](Cc1c[nH]c2ccccc12)NC(=O)[C@@H](CCCCN)NC(=O)[C@@H](C)NC(=O)[C@@H](CC(C)C)NC(=O)[C@@H](C)NC(=O)[C@@H](Cc1c[nH]cn1)NC(=O)[C@@H](CCCCN)NC(=O)[C@@H](CC(C)C)NC(=O)[C@@H](C)NC(=O)[C@@H](CCCCN)NC(=O)[C@H](N)CCCCN)C(=O)N[C@H](C)C(=O)N[C@H](Cc1c[nH]cn1)C(=O)N[C@H](CCCCN)C(=O)N[C@H](CC(C)C)C(=O)N[C@H](C)C(=O)N[C@H](CCCCN)C(=O)N[C@H](CCCCN)C(N)=O`, the EC50 was 3.95 ± 0.4 µM (cytotoxicity, MTT; four hours, 37 °C, serum-free medium).
With `COC1=C[C@@H]2[C@@H]3Cc4c(Br)cc(OC)c(OC(=O)c5ccnnc5)c4[C@]2(CCN3C)CC1=O` the IC50 was 53.4 µM (NO release, inhibitor, Griess; LPS-stimulated).
`CCCCn1cc(C(=O)O)c(=O)c2cc(F)c(Nc3cccc(Cl)c3)c([N+](=O)[O-])c21` has an IC50 of 69.3 µM (NO release, inhibitor, Griess; LPS-stimulated).
The inhibition of `COc1cc(C=O)ccc1OC(=O)CSc1nnc(Cn2cnc3c2c(=O)n(C)c(=O)n3C)o1` is reported as 86.4% (NO release, inhibitor, Griess; 25 µM, LPS-stimulated).
`COC1=C[C@@H]2[C@@H]3Cc4ccc(OC)c(OC(=O)CN)c4[C@]2(CCN3C)CC1=O` gave an IC50 of 53.4 µM (NO release, inhibitor, Griess; LPS-stimulated).
For `COc1cc(C=O)ccc1OC(=O)COC(=O)Cn1cnc2c1c(=O)n(C)c(=O)n2C`, the inhibition was 68.6% (NO release, inhibitor, Griess; 25 µM, LPS-stimulated).
For `CC(C)C[C@@H](NC(=O)[C@@H](C)NC(=O)[C@@H](CC(C)C)NC(=O)[C@@H](CCCCN)NC(=O)[C@H](N)CCCCN)C(=O)N[C@H](Cc1c[nH]cn1)C(=O)N[C@H](C)C(=O)N[C@H](CC(C)C)C(=O)N[C@H](CCCCN)C(=O)N[C@H](CCCCN)C(=O)N[C@H](Cc1c[nH]c2ccccc12)C(=O)N[C@H](CC(C)C)C(=O)N[C@H](Cc1c[nH]cn1)C(=O)N[C@H](C)C(=O)N[C@H](CC(C)C)C(=O)N[C@H](CCCCN)C(=O)N[C@H](CCCCN)C(=O)N[C@H](CC(C)C)C(=O)N[C@H](C)C(=O)N[C@H](Cc1c[nH]cn1)C(=O)N[C@H](CC(C)C)C(=O)N[C@H](C)C(=O)N[C@H](CC(C)C)C(=O)N[C@H](CCCCN)C(=O)N[C@H](CCCCN)C(N)=O`, the EC50 was 5.21 ± 0.57 µM (cytotoxicity, MTT; four hours, 37 °C, serum-free medium).
`COC1=C[C@@H]2[C@@H]3Cc4ccc(OC)c(OC(=O)c5ccncn5)c4[C@]2(CCN3C)CC1=O` has an IC50 of 64 µM (NO release, inhibitor, Griess; LPS-stimulated).
`CCCCn1cc(C(=O)O)c(=O)c2cc(F)c(Nc3ccccc3Cl)c([N+](=O)[O-])c21` has an IC50 of 31.4 ± 5.31 µg/mL (nitric oxide production, Griess; 24 h, with: LPS).
`CC(C)[C@@H]1CC[C@@H](C)C[C@H]1OC(=O)Cn1cnc2c1c(=O)n(C)c(=O)n2C` gave an inhibition of 66.4% (NO release, inhibitor, Griess; 25 µM, LPS-stimulated).
The IC50 of `COC1=C[C@@H]2[C@@H]3Cc4ccc(OC)c(OC(=O)[C@H](C)N)c4[C@]2(CCN3C)CC1=O` is reported as 68.9 µM (NO release, inhibitor, Griess; LPS-stimulated).
`CC(C)C[C@@H](NC(=O)[C@@H](C)NC(=O)[C@@H](CCCCN)NC(=O)[C@H](N)CCCCN)C(=O)N[C@H](C)C(=O)N[C@H](CCCCN)C(=O)N[C@H](C)C(=O)N[C@H](CC(C)C)C(=O)N[C@H](CCCCN)C(=O)N[C@H](Cc1c[nH]cn1)C(=O)N[C@H](Cc1c[nH]c2ccccc12)C(=O)N[C@H](CC(C)C)C(=O)N1CCC[C@@H]1C(=O)N[C@H](C)C(=O)N[C@H](CC(C)C)C(=O)N[C@H](Cc1c[nH]cn1)C(=O)N[C@H](CCCCN)C(=O)N[C@H](CC(C)C)C(=O)N[C@H](C)C(=O)N[C@H](CCCCN)C(=O)N[C@H](C)C(=O)N[C@H](CC(C)C)C(=O)N[C@H](C)C(=O)N[C@H](CCCCN)C(=O)N[C@H](CCCCN)C(N)=O` gave an EC50 of 7.08 ± 1.42 µM (cytotoxicity, MTT; four hours, 37 °C, serum-free medium).

Some of these lines once more:
With `COC1=C[C@@H]2[C@@H]3Cc4ccc(OC)c(OC(=O)c5cnccn5)c4[C@]2(CCN3C)CC1=O` the IC50 was 30.3 µM (NO release, inhibitor, Griess; LPS-stimulated).
